Assay results of several laboratories.
Parts stem from different laboratories: compare values within a part only. Changes are numbered by the printed parent chain.

Block 1
Target: RNA binding protein fox-1 homolog 2, RRM domain, GST-SBP tag (RBFOX2, Homo sapiens, UniProt O43251-10, residues 100-194)
Technique: RNA Bind-n-Seq
Molecule type: RNA
Sample: in vitro
Tested at: 365 nM
Setting: natural RNA segment, single round, ends assumed
Reference: no-protein control
Reading: higher = stronger binding
Measurement: RBNS enrichment (R)
Target sequence (chain): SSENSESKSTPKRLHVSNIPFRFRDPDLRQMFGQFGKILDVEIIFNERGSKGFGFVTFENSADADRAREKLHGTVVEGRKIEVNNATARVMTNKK
GGGAGUUCUACAGUCCGACGAUCACAGCGCAAUGCUGCCACCACCCAGUUUCUUCAUCAGAAGACAAGGGAACGAGAAAACUGCUGUUCGUUUGUAUUUGUGAACUUGGCUGUAAUCUGGUAUGCCAUAGGAUUGGAAUUCUCGGGUGCCAA: 0.429
GGGAGUUCUACAGUCCGACGAUCUGUCGGCUGCUGCUUCUGGGCCACGGGGAGCCCCAGGACCUAUGCACUUUAUUUCUGACCCCGUGGCUUCGGCUGAGACCUGUGUAACCUGCUGCCCCCUCCACCCCCAAUGGAAUUCUCGGGUGCCAA: 2.06
GGGAGUUCUACAGUCCGACGAUCACGGAGUGUCACUUUCAACCGGCCUCCCCUACCCCUGCUGGCCGGGGAUGGAGACAUGUCAUUUGUAAAAGCAGAAAAAGGUUGCAUUUGUUCACUUUUGUAAUAUUGUCUGGAAUUCUCGGGUGCCAA: 0.334
GGGAGUUCUACAGUCCGACGAUCGCCAUAUGUAGCACAGCAAUAUUCCAGAUGCUGGUGGGUAUUGCUGCUGCCCUAGAGCAAUGGCUUAAUCUUCACACAUGUGUGGUGUGGCACCAGGCACUUGACCUUGGUGGAAUUCUCGGGUGCCAA: 0.77

Block 2
Target: ABI1, truncated, D143A, DHFR fusion (Arabidopsis thaliana)
Technique: DHFR PCA, deep sequencing
Sample: yeast
Setting: methotrexate growth selection, single substitutions
Added: (+)-ABA 17 µM
Reference: wild-type fitted maximum
Reading: higher = stronger binding
Measurement: relative binding score
Starting sequence: PYL1, truncated, DHFR fusion (Arabidopsis thaliana); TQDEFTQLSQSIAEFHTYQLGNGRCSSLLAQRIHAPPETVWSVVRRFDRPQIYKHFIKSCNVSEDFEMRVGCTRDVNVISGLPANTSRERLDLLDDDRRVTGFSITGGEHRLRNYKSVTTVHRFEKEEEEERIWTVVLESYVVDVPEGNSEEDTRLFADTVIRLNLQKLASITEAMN
E151G: 68.2%
R90W: -10.3%
L8I: 56.8%
L82W: 37.6%

Block 3
Target: PABPC1L2, full length, GST fusion (mouse, UniProt A0ABA7IW68)
Technique: RNAcompete
Molecule type: RNA
Sample: in vitro
Tested at: 20 nM
Setting: 7-mer, probes averaged, single round
Reference: mean of 7-mers
Reading: higher = stronger binding
Measurement: 7-mer Z-score
Target sequence (chain): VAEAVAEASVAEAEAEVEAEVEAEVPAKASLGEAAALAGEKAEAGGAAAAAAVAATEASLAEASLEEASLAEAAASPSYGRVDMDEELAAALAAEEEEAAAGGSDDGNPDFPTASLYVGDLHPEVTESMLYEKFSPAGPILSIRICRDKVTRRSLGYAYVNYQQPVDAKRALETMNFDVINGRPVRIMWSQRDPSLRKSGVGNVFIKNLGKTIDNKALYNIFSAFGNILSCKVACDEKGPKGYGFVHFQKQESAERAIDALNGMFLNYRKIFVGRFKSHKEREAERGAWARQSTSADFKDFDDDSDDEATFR
UAUAGCC: -0.0536
CAACGGU: -0.0047
AAAUAGG: 2.85
UCGGAGA: -0.0736

Further values, each from its own experiment
PhoQ, residues 284 288 289 292 302 303 TASMAF — fold induction (PhoP, residues 12 14 15 18 19 DLLYY (Escherichia coli, UniProt P23836); Sort-seq, measured: YFP reporter; E. coli; PhoQ-PhoP variant library, added: 10 µM Mg2+; reference: high Mg2+ state, higher = stronger signaling): 2.24

Excerpt of the above (block 1):
GGGAGUUCUACAGUCCGACGAUCGCCAUAUGUAGCACAGCAAUAUUCCAGAUGCUGGUGGGUAUUGCUGCUGCCCUAGAGCAAUGGCUUAAUCUUCACACAUGUGUGGUGUGGCACCAGGCACUUGACCUUGGUGGAAUUCUCGGGUGCCAA: 0.77
